{"data": "Measured values gathered from unrelated publications", "note": "Compare with care: the assays were run in different laboratories. ± gives the spread as reported."}
{"Compound": "Cc1ncsc1-c1ccc(C(C)NC(=O)C2CC(O)CN2C(=O)C(NC(=O)CCCCCCCCCCN2CCCC(Nc3ncc(Cl)c(Nc4ccccc4S(=O)(=O)C(C)C)n3)C2)C(C)(C)C)cc1 (stereo not shown)", "tested on": "22Rv1", "test": "RNA-seq, item: TRIP11 mRNA", "setting": "concentration not given", "how to read": "relative to: DMSO", "measurement": "log2 fold change", "value": -1.36}
{"Compound": "COc1cc(O)ccc1CCC(c1ccc(O)cc1)c1cc2c(c(C)c1O)OC(c1ccc(O)cc1)CC2 (mixture of isomers)", "system": "human blood", "setting": "10 µM, with: A23187", "measurement": "20-OH-LTB4 level", "value": "147 ± 75 pg/mL"}
{"Compound": "C=CC(=O)Nc1cccc(Cn2ncc3cnc(Nc4cnn(CCOC)c4)nc32)c1", "tested on": "AKT3 human", "test": "binding, KINOMEscan", "setting": "100 nM", "how to read": "lower = stronger binding", "measurement": "percent of control", "value": "100%"}
{"Compound": "C[n+]1ccc(/C=N/NC(=O)c2cc(C(=O)N/N=C/c3cc[n+](C)c4ccccc34)ncn2)c2ccccc21", "tested on": "myc22 MYC G4-DNA parallel", "test": "FRET melting", "setting": "1 µM, K1 buffer, DNA 0.2 µM", "measurement": "ΔTm", "value": "3.2 ± 0.2 °C"}
{"Compound": "C=C(NC(=O)c1csc(-c2nc3c(cc2O)-c2nc(cs2)C(=O)NC(C(C)O)C(=O)NC(=C(C)OC)c2nc(cs2)C(=O)NC2c4nc(cs4)C(=O)NC(COC(=O)c4c5c6c(cccc6n4O)COC(=O)C(OC4CC(C)(O)C(N(C)C)C(C)O4)C2OC5)c2nc-3cs2)n1)C(N)=O (stereo not shown)", "tested on": "Streptococcus pneumoniae", "system": "-25, immunocompromised mice, lung infection", "setting": "bid dosing", "measurement": "lung bacterial load at ED50", "value": "5.25 log CFU/g"}
{"Compound": "COC1CN([C@H]2CC[C@H]([C@@]3(C)Oc4c(Cl)cc(C(=O)NCc5c(SC)cc(C)[nH]c5=O)c(C)c4O3)CC2)C1", "test": "RNA-seq, item: EPB41L5", "system": "human, whole blood", "setting": "dose not given, 24 h", "how to read": "relative to: pretreatment baseline", "measurement": "log2 fold change", "value": 1.74}
{"Compound": "C[n+]1ccc(/C=N/NC(=O)c2cncc(C(=O)N/N=C/c3cc[n+](C)c4ccccc34)n2)c2ccccc21", "tested on": "myc22 MYC G4-DNA parallel", "test": "FRET melting", "setting": "1 µM, K1 buffer, DNA 0.2 µM", "measurement": "ΔTm", "value": "21 ± 0.2 °C"}
{"Compound": "Nc1ncc(-c2cc(-c3cnn(CC(F)(F)F)c3)ncc2F)nc1C(=O)NC1CNCC(F)C1 (stereo not shown)", "tested on": "TNK2", "test": "KINOMEscan", "setting": "1 µM", "how to read": "relative to: DMSO control", "measurement": "remaining binding", "value": "100%"}
{"Compound": "CNS(=O)(=O)Nc1nccc(Cc2c(C)c3ccc(Oc4ncccc4F)cc3oc2=O)c1F", "tested on": "NCI-H1793", "test": "cell viability", "setting": "7 days", "measurement": "IC50", "value": "> 1000 nM"}
{"Compound": "CN1CCCNC(=O)c2cccc(c2)C(=O)NCCCN(C)CCCNc2cccc3c2C(=O)c2cccc(c2C3=O)NCCC1", "tested on": "SAS", "test": "RNA-Seq, item: MANF mRNA", "setting": "1 µM, 6 h", "how to read": "relative to: untreated cells", "measurement": "log2 fold change", "value": -0.689}
{"note": "Excerpt of the above:"}
{"Compound": "C[n+]1ccc(/C=N/NC(=O)c2cncc(C(=O)N/N=C/c3cc[n+](C)c4ccccc34)n2)c2ccccc21", "tested on": "myc22 MYC G4-DNA parallel", "test": "FRET melting", "setting": "1 µM, K1 buffer, DNA 0.2 µM", "measurement": "ΔTm", "value": "21 ± 0.2 °C"}
